Assay results of several laboratories.
A part holds a random share of what one study measured. Changes are numbered by the printed parent chain.

Sample 1
Target: RING finger protein unkempt homolog, zinc fingers 1-6, GST-SBP tag (UNK, Homo sapiens, UniProt Q9C0B0, residues 30-357)
Chain of UniProt Q9C0B0 (30-357, looked up): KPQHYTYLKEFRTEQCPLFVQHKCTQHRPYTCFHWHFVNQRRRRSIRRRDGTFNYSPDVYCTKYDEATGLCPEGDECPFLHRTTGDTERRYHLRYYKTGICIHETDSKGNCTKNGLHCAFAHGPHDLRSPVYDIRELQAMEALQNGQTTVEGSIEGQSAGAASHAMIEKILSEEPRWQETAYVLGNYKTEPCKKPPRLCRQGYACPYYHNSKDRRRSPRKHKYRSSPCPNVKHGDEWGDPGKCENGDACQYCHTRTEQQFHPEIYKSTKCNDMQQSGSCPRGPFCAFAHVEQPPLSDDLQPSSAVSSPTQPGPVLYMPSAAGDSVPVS
Technique: RNA Bind-n-Seq
Form: RNA
Medium: in vitro
Concentration: not given
Setting: RNA with constant flanks, human and mouse sites, ends assumed
Relative to: input RNA pool
Reading: higher = stronger binding
Quantity: bound/input enrichment
GGGAGUUCUACAGUCCGACGAUCAUGAAGAAUGAUAUAACAGUUCCUUCAAAAUUGGCCUAGGAAAUAAAACCUUAAAAGGACACUGGUGUGCUACUUUGUCUUAAUUUGGGCUUUUCUGUUUCAGUUUGCCACCUCCAGCUGCAACAGAGGAUUGAGCAUCA: 0.424 ratio
GGGAGUUCUACAGUCCGACGAUCUUCUAGAACUGGUAGCUCGGUCGUUUCGCACACUAGGUGGCAUACAGGCAGCAGCAGGUGUUCAUAUCCUUGAUUUUGAGAAUUUCCCCUCAAGUAUGUGGCAGUAAAUACAACAAGACACAACAGAGGAUUGAGCAUCA: 0.408 ratio
GGGAGUUCUACAGUCCGACGAUCGGUCCUAAAGACAAGAUUCUUGAUGGGACUGAUACCGACAGCAAUAGGAUCUUUUGAGUAUUCAACUCGGAGUAACAGAAUUUGUCAUCAACGGCAUGAAUGGCUCAGCCGAGGAAAUAGCAACAGAGGAUUGAGCAUCA: 0.281 ratio
GGGAGUUCUACAGUCCGACGAUCGCCAUCCACCAGCUUUACUCUCUGACACACACACGCACACACACACACAAUUUUAACUUGUUUUUUUGUACAUAAUGUACAUACUGUCAAUUUUUUAUUAAAAGAAAUAUGCUUUGAUGUCAACAGAGGAUUGAGCAUCA: 1.36 ratio

Sample 2
Target: CCNE1, cyclin fold, Cln2 fusion (human)
Technique: yeast growth competition, sequencing
Medium: yeast
Setting: strong parent motif
Relative to: not given
Reading: higher = stronger binding
Quantity: normalised enrichment score
Starting sequence: BRCA2 docking peptide (human); PSIKRNLLNEFDR
PSIKRELLNEFDR [N6E]: 0.604
PSIKRNLLNRFDR [E10R]: 0.392
PSIKYNLLNEFDR [R5Y]: 0.348
PSIKRNLLNEFRR [D12R]: 0.573
PEIKRNLLNEFDR [S2E]: 0.417

Sample 3
Target: TAR DNA-binding protein 43, full length, His tag (TARDBP, Homo sapiens, UniProt Q13148, residues 1-414)
Technique: RNA Bind-n-Seq
Form: RNA
Medium: in vitro
Concentration: 20 nM
Setting: 6-mer, flanks averaged, single round
With: 150 mM KCl
Relative to: input library
Reading: higher = stronger binding
Quantity: 6-mer enrichment (R)
UAUAGG: 0.937
CGCACA: 0.714
AGGAGC: 1.44
GAAGAA: 1.02
GUUGUU: 0.793
GUAUCC: 0.63
UAUAGU: 0.646

Single results of other studies
PhoQ, residues 284 288 289 292 302 303 TLASMF — fold induction (PhoP, residues 12 14 15 18 19 LWHCS (Escherichia coli, UniProt P23836); Sort-seq, item: YFP reporter; E. coli; PhoQ-PhoP variant library, with: 10 µM Mg2+; relative to: high Mg2+ state, higher = stronger signaling): 4.15

Excerpt of the above (sample 3):
AGGAGC: 1.44
GUAUCC: 0.63
UAUAGU: 0.646
